Published values of several laboratories.
Lines come from different studies, so protocols differ. “And” joins repeats or separate records; there may be more than shown. ± marks the error that the study gave.
USP5: Ubiquitin carboxyl-terminal hydrolase 5 (USP5, Homo sapiens, UniProt P45974)
CASP4: Caspase-4 (CASP4, Homo sapiens, UniProt P49662)
Lysophospholipase-like protein 1: Lysophospholipase-like protein 1 (Mus musculus, UniProt Q3UFF7)

Compound	target	assay	system	conditions	scale	endpoint	result
CC(=O)N[C@@H](CCCNC(=N)N)C(=O)N[C@H](C(=O)N[C@@H](CCCCN)C(=O)N[C@@H](CO)C(=O)N[C@@H](CCCNC(=N)N)C(=O)N[C@H](C(=O)N[C@@H](Cc1c[nH]c2ccccc12)C(=O)N[C@@H](C)C(=O)N1Cc2ccccc2C[C@H]1C(N)=O)[C@@H](C)OP(=O)(O)O)[C@@H](C)O	14-3-3 protein epsilon (Homo sapiens, UniProt P62258)	binding, SPR				kon	1.29e+06 M⁻¹ s⁻¹
CCN(CC)C(CO)c1cccc2c(C)c(C)oc12 (stereo not shown)	LPAR1 (Homo sapiens, UniProt Q92633, W271F)	G-protein dissociation, agonist, NanoBiT	HEK-293T	10 pM, W271F mutant	baseline: baseline luminescence	fold change	1.01 and 1.02 and 0.963
C=CC(=O)N1CCCC(n2c(=O)c3ncccc3n(Cc3ccc(Oc4ccccc4)cc3)c2=O)C1 (stereo not shown)	Putative protein-lysine deacylase ABHD14B (Homo sapiens, UniProt Q96IU4)	thermal proteome profiling		replicate 2		melting temperature	50.2 °C
N#CN1CC[C@H](C(=O)Nc2nc3c(s2)CN(C(=O)Cn2cc(CNC(=O)CCCC[C@@H]4SC[C@@H]5NC(=O)N[C@@H]54)nn2)CC3)C1	USP5	probe binding, affinity probe, neutravidin pull-down LC-MS/MS	HEK293T, cell lysate	5 µM, 1 h, mean of three replicates, unit not given	higher = more pulled down	iBAQ abundance	1.12e+06
CC(C)Oc1cc(Cl)ccc1CNc1cc(-c2ccccc2)nc2ncnn12	GPR3 (Homo sapiens, UniProt P46089, V196W)	agonist, cAMP GloSensor		concentration not given, V196W mutant	baseline: wild type	potency reduction	> 10 fold
CC[C@H](C)[C@@H]1NC(=O)[C@H](Cc2ccccc2)NC(=O)[C@H](CCC(=O)O)NC(=O)[C@H](CCCNC(=N)N)NC(=O)CNC(=O)[C@@H](NC(=O)[C@H](CC(C)C)NC(=O)[C@H](CCCNC(=N)N)NC(=O)[C@@H](NC(=O)CNC(=O)[C@H](Cc2ccc(O)cc2)NC(=O)[C@@H]2CCCN2C(=O)[C@H](C)NC(=O)[C@H](C)NC(=O)[C@@H](N)CCCNC(=N)N)C(C)C)CSSC[C@@H]2NC(=O)[C@@H](NC(=O)[C@H](CO)NC(=O)[C@H](CO)NC(=O)[C@H](CO)NC(=O)[C@H](CC(C)C)NC(=O)CNC(=O)[C@H](C)NC(=O)[C@H](CC(C)C)NC(=O)[C@@H](NC(=O)[C@@H](N)CC(=O)O)C(C)C)CSSC[C@H](NC(=O)CNC(=O)[C@H](Cc3c[nH]c4ccccc34)NC(=O)[C@H](CCCCN)NC2=O)C(=O)N[C@@H](CO)C(=O)N[C@@H](CCCCN)C(=O)N[C@@H](CO)C(=O)N[C@@H](CCC(=O)O)C(=O)N[C@@H]([C@@H](C)CC)C(=O)N[C@@H](CO)C(=O)N[C@@H](CO)C(=O)N[C@@H](CC(C)C)C(=O)N[C@H](C(=O)O)CSSC[C@@H](C(=O)NCC(=O)NCC(=O)N[C@@H](CO)C(=O)N[C@@H](CCCNC(=N)N)C(=O)N[C@@H](Cc2c[nH]c3ccccc23)C(=O)O)NC(=O)[C@H]([C@@H](C)O)NC(=O)[C@H](Cc2ccccc2)NC(=O)[C@H]([C@@H](C)CC)NC(=O)[C@H](C(C)C)NC(=O)[C@H](C)NC(=O)[C@H](CCCNC(=N)N)NC1=O	RXFP4 (Homo sapiens, UniProt Q8TDU9, T121A)			T121A mutant	baseline: wild type	ΔpEC50	inactive
COC(=O)c1cccc(C(=O)c2c[nH]c3ccccc23)n1	AHR (Homo sapiens, UniProt P35869)	reporter gene, agonist, XRE luciferase	HepG2		baseline: ITE	Emax	55 ± 4%
CC[C@H](C)[C@H](NC(=O)[C@H](Cc1ccccc1)NC(=O)[C@H](CCC(=O)O)NC(=O)[C@H](CCCCN)NC(=O)[C@H](C)NC(=O)[C@H](C)NC(=O)[C@H](CCC(N)=O)NC(=O)CNC(=O)[C@H](CCC(=O)O)NC(=O)[C@H](CC(C)C)NC(=O)[C@H](Cc1ccc(O)cc1)NC(=O)C[C@@H](NC(=O)[C@H](CO)NC(=O)C(C)(C)NC(=O)[C@H](CC(=O)O)NC(=O)[C@H](CO)NC(=O)[C@@H](NC(=O)[C@H](Cc1ccccc1)NC(=O)[C@@H](NC(=O)CNC(=O)[C@H](CCC(=O)O)NC(=O)[C@H](C)NC(=O)[C@@H](N)Cc1c[nH]cn1)[C@@H](C)O)[C@@H](C)O)C(C)C)C(=O)N[C@@H](C)C(=O)N[C@@H](Cc1c[nH]c2ccccc12)C(=O)N[C@@H](CC(C)C)C(=O)N[C@H](C(=O)N[C@@H](CCCCN)C(=O)NCC(=O)N[C@@H](CCCNC(=N)N)C(N)=O)C(C)C	GLP1R (Homo sapiens, UniProt P43220)	β-arrestin-1 recruitment, agonist, BRET			baseline: GLP-1	efficacy	27 ± 2%
CC1=NN(c2ccccc2)C(=O)C1=C1C(=O)N(c2ccccc2)N=C1C	USP5	enzyme activity, inhibitor		17 µM		inhibition	100%
CCCCCC(O)/C=C/C=O (stereo not shown)	Heat shock 70 kDa protein 4 (Homo sapiens, UniProt P34932)	acylphosphate-ATP probe SILAC-ABPP, item: HSPA4	ZAK-transfected HEK293T	100 µM, with: acylphosphate-ATP probe	baseline: DMSO over compound-treated	probe labelling ratio	0.62
CC(=O)N1C[C@H](O)C[C@H]1C(=O)N[C@H](C(=O)N[C@@H](CO)C(=O)N[C@@H](CC(=O)O)C(=O)COC(=O)c1c(C)cccc1C)C(C)C	CASP4	enzyme activity, inhibitor				kinact/KI	600 M⁻¹ s⁻¹
CC1CCCc2nc(N)nc(N)c21 (stereo not shown)	folA (Escherichia coli, UniProt P0ABQ4)			concentration not given, ternary complex with NADPH		exchange rate kex	390 ± 47.3 s⁻¹
C=CC(=O)N1[C@H](c2ccc3c(c2)OCO3)c2[nH]c3ccccc3c2C[C@H]1C(=O)N1CCOCC1	Hepatocyte nuclear factor 3-alpha (FOXA1, Homo sapiens, UniProt P55317)	chromatin binding, ChIP-seq	22Rv1	20 µM, 3 h		genome-wide binding	no effect
COC(=O)c1[nH]c2sc3c(c2c1N)CCCC3	USP5	enzyme activity, inhibitor		17 µM		inhibition	76%
CC(=O)N[C@@H](CC(=O)O)C(=O)N[C@@H](C)C(=O)N[C@@H](Cc1ccc(N)cc1)C(=O)N[C@@H](CC(=O)O)C(=O)COC(=O)c1c(C)cccc1C	CASP4	enzyme activity, inhibitor				kinact/KI	1800 M⁻¹ s⁻¹
CCCCCC=CC=C1C(=O)C=CC1CC=CCCCC(=O)O (stereo not shown)	Large ribosomal subunit protein eL24 (Homo sapiens, UniProt P83731)	competitive isoTOP-ABPP	Ramos soluble proteome	100 µM, 60 min, with: iodoacetamide probe	baseline: DMSO over compound-treated, higher = stronger cysteine blockade	isoTOP-ABPP competition ratio	3.5
CC(=O)N[C@@H](CC(C)C)C(=O)N[C@@H](CCC(=O)O)C(=O)N[C@H](C(=O)N[C@@H](CC(=O)O)C(=O)COC(=O)c1c(C)cccc1C)[C@@H](C)OCc1ccccc1	CASP4	inhibitor		recombinant enzyme		kobs/[I]	39400 M⁻¹ s⁻¹
CN(CCCC[C@H](NC(=O)[C@H](CCCN1CCOCC1)NC(=O)[C@@H](NC(=O)[C@H](Cc1ccccc1)NC(=O)c1ccc(C(C)(C)C)cc1)C1CCC1)C(=O)N[C@@H](CO)C(N)=O)C1CC2CCC1C2 (stereo partly shown)	Chromobox protein homolog 8 (Homo sapiens, UniProt Q9HC52)	TR-FRET displacement			baseline: IC50 CBX7 over IC50 CBX8	selectivity ratio	21
COC(=O)[C@@]1(C)C=C(C(=O)Nc2cccc(C(=O)Nc3ccc(Nc4nccc(-c5cccnc5)n4)c(C)c3)c2)C(=O)CC1	MAPK14 (Homo sapiens, UniProt Q16539)	kinase activity, inhibitor		14.81 µM, unit not given	baseline: no inhibitor	remaining activity	0.614

Compound	target	assay	system	conditions	scale	endpoint	result
CC(=O)Nc1cc(OC(C)=O)c2nonc2c1OC(C)=O	USP5	enzyme activity, inhibitor		17 µM		inhibition	70%
CC(=O)N[C@H](CCc1ccccc1)C(=O)N[C@@H](CCCC(=O)O)C(=O)N1C[C@H](O)C[C@H]1C(=O)N[C@@H](CC(=O)O)C(=O)COC(=O)c1c(C)cccc1C	CASP4	enzyme activity, inhibitor				kinact/KI	24000 M⁻¹ s⁻¹
N=C(N)NCCS(=O)(=O)O	SLC6A6 (Homo sapiens, UniProt P31641, G62A)	binding, microscale thermophoresis		1.95 µM, room temperature, with: 50 nM labelled protein	higher = more binding	normalised MST signal	-0.0532
Cc1nc2ccc(S(=O)(=O)n3nc(NCc4ccc(Cl)cc4)nc3N)cc2s1	Lysophospholipase-like protein 1	enzyme activity, activator, gel-based ABPP	purified protein	concentration not given, with: FP-rhodamine	baseline: DMSO	probe labeling increase	1 fold
COc1ccc(/C=C2\S/C(=N/c3ccc(Cl)cc3C(=O)O)NC2=O)cc1	DHODH (Homo sapiens, UniProt Q02127)	enzyme activity, inhibitor, DCIP reduction		0.5 µM	higher = more activity	reaction rate	-20.6 a.u.
[3H]C([3H])([3H])OC1(C2=NCCN2)COc2ccccc2O1 (stereo not shown)	Alpha-2C adrenergic receptor (Mus musculus, UniProt Q01337, N33Q)	radioligand binding	HEK293 membranes	α2c(N33Q)-AR mutant		Bmax	0.23 ± 0.06 pmol/mg protein
Cc1[nH]c(C)c(S(=O)(=O)Nc2cccc(Cl)c2)c1C(=O)N1CCCC1	DRD3 (Homo sapiens, UniProt P35462)	β-arrestin recruitment, agonist, PathHunter			baseline: dopamine	Imax	91 ± 5.2%
CN(Cc1cc(C2CC2)on1)C(=O)c1cccc(-c2ccc3c(c2)CCO3)c1	ACSS2 (Homo sapiens, UniProt Q9NR19)	enzyme activity, inhibitor, coupled pyrophosphate		1.56 µM	higher is more activity	reaction rate	0.00334 a.u.
CC(C)[C@@H]1NC(=O)[C@H](Cc2ccccc2)NC(=O)CSC[C@@H](C(N)=O)NC(=O)[C@H](CCC(=O)O)NC(=O)[C@H](CO)NC(=O)[C@H](Cc2c[nH]c3cccc(Cl)c23)NC(=O)[C@H](C2CCCCC2)NC(=O)[C@H](C(C)C)NC(=O)[C@H](Cc2ccc(O)cc2)NC(=O)[C@H](CC(=O)O)NC(=O)[C@H](Cc2c[nH]c3ccccc23)NC(=O)[C@H](Cc2ccc(N)nc2)NC(=O)[C@H](Cc2c[nH]c3ccc(Cl)cc23)NC(=O)[C@H](CCC(=O)O)NC1=O	Interleukin-1 receptor-like 2 (IL1RL2, Homo sapiens, UniProt Q9HB29)	reporter gene (SEAP), inhibitor, HEK-Blue IL-36R reporter	HEK-Blue IL-36R cells	11.11 µM, 6 h, with: IL-36γ 1 ng/mL		remaining activity	8.7%
COC(=O)c1cccc(S(=O)(=O)n2nc(SCc3ccc(Cl)cc3)nc2N)c1	Lysophospholipase-like protein 1	enzyme activity, activator, gel-based ABPP	purified protein	concentration not given, with: FP-rhodamine	baseline: DMSO	probe labeling increase	3.1 fold
O=C1c2sc(-c3ccc(N4CCC(CO)CC4)nc3F)nc2CCN1c1cccnc1	TAR DNA-binding protein 43, aggregated (TARDBP, Homo sapiens, UniProt Q13148)	radioligand binding	human, FTLD-TDP type B sarkosyl-insoluble extract	37.19 nM		specific binding	1.75 nM and 1.54 nM
O=C(O)C(COP(=O)(O)O)OP(=O)(O)O (stereo not shown)	Phosphoglycerate mutase 1 (Homo sapiens, UniProt P18669)			0.008 mM, unit not given	baseline: activity at 1 mM set to 100	enzyme activity	94.4 and 79.4 and 89.5 and 107
CC(=O)N[C@H](C(=O)N[C@@H](CCC(=O)O)C(=O)N[C@@H](CCCCN(C)C)C(=O)N[C@@H](CC(=O)O)C(=O)COC(=O)c1c(C)cccc1C)C(C)C	CASP4	enzyme activity, inhibitor				kinact/KI	9600 M⁻¹ s⁻¹
NS(=O)(=O)c1ccc(N2C(=O)c3ccc(N4CCOCC4)cc3C2=O)cc1	CA2 (Homo sapiens, UniProt P00918)	binding		2 µM, pH 7.2	baseline: without protein	fluorescence turn-on	2.7 ± 0.3 fold
CC[C@H](NC(=O)[C@H](CC(C)C)NC(C)=O)C(=O)N[C@@H](CCC1CCCCC1)C(=O)N[C@@H](CC(=O)O)C(=O)COC(=O)c1c(C)cccc1C	Caspase-9 (CASP9, Homo sapiens, UniProt P55211)	enzyme activity, inhibitor				kinact/KI	183000 M⁻¹ s⁻¹
COc1ccccc1-c1ccncc1C(=O)Nc1nnc(OCc2ccc(Cl)cc2)s1	DNA polymerase theta, helicase domain (POLQ, Homo sapiens, UniProt O75417)	ATPase activity, ADP-Glo		0.004 µM, with: ATP 100 µM		remaining activity	84%
CC(=O)N[C@@H](CC(=O)O)C(=O)N[C@@H](CO)C(=O)N[C@@H](C)C(=O)N[C@@H](CC(=O)O)C(=O)COC(=O)c1c(C)cccc1C	CASP4	enzyme activity, inhibitor				kinact/KI	9600 M⁻¹ s⁻¹
CC[C@H](C)[C@H](NC(=O)[C@H](CC(=O)O)NC(C)=O)C(=O)N[C@H](C(=O)N[C@H](C(=O)N[C@@H](CCCNC(=N)N)C(=O)N[C@@H](Cc1ccc(O)cc1)C(=O)N[C@@H](CC(N)=O)C(=O)NCC(=O)N[C@@H](CCCCN)C(=O)N[C@H](C(=O)N[C@@H](Cc1c[nH]c2ccccc12)C(=O)N[C@@H](Cc1c[nH]c2ccccc12)C(=O)N[C@@H](CCCNC(=N)N)C(=O)O)C(C)C)[C@@H](C)O)[C@@H](C)O	Insulin (INS, Bos taurus, UniProt P01317)	circular dichroism	insulin-peptide complex	concentration not given, 0 min, 62 °C, before heat incubation, with: insulin 350 µM		random coil content	22%

Some of these lines once more:
Compound	target	assay	system	conditions	scale	endpoint	result
O=C1c2sc(-c3ccc(N4CCC(CO)CC4)nc3F)nc2CCN1c1cccnc1	TAR DNA-binding protein 43, aggregated (TARDBP, Homo sapiens, UniProt Q13148)	radioligand binding	human, FTLD-TDP type B sarkosyl-insoluble extract	37.19 nM		specific binding	1.75 nM and 1.54 nM
O=C(O)C(COP(=O)(O)O)OP(=O)(O)O (stereo not shown)	Phosphoglycerate mutase 1 (Homo sapiens, UniProt P18669)			0.008 mM, unit not given	baseline: activity at 1 mM set to 100	enzyme activity	94.4 and 79.4 and 89.5 and 107
CC(=O)N[C@H](C(=O)N[C@@H](CCC(=O)O)C(=O)N[C@@H](CCCCN(C)C)C(=O)N[C@@H](CC(=O)O)C(=O)COC(=O)c1c(C)cccc1C)C(C)C	CASP4	enzyme activity, inhibitor				kinact/KI	9600 M⁻¹ s⁻¹
